Measured values gathered from unrelated publications.
Each numbered part is a random draw from the data of one study; scales do not carry over between parts.

Study 1 — method: RNA Bind-n-Seq; molecule type: RNA; matrix: in vitro; tested at: 200 nM; setting: whole 134-nt RNA, ends assumed; together with: 150 mM KCl; reference: input library; reading: higher = stronger binding
Target: Ras GTPase-activating protein-binding protein 1, full length (G3BP1, Homo sapiens, UniProt Q13283)
Sequence of UniProt Q13283 (whole entry, looked up): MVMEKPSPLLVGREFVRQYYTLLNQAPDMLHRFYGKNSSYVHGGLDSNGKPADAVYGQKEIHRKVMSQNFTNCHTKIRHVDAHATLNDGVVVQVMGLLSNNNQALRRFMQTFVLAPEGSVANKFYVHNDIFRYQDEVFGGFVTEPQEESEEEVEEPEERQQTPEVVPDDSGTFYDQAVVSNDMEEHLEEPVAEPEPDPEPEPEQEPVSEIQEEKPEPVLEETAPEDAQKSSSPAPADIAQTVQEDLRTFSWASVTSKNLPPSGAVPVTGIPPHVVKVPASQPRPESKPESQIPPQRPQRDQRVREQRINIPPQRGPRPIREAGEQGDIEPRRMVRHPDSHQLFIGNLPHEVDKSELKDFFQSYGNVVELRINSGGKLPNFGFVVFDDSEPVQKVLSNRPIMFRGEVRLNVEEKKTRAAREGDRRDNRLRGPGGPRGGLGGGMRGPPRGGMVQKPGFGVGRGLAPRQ
Sequence	log2 enrichment
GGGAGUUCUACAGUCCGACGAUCUCCUGUGCUACACAUCGUAUGUACCGAAUCGGGGAAAGGGGUUUUUUUGGGGUUUGGGGAAAGUAUUAUGUUACGCCGUUCGGAUCUGCAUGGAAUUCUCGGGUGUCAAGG	0.971
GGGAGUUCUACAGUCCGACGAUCACCAUCCAGGUGGGCAUCUUUGGGAAGUGGGGCAAGGGGGGGAUAGGGAGGGGGGUAACACUUUGGGAACAGGUGGUCCCAGGUCGUUUCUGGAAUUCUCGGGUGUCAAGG	1.1
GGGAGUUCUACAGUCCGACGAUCACCUUGCAGGUGGGCAUCUUUGGGAAGUGGGGCAAGGGGGGGAUAGGGAGGGGGGUAACACUUUGGGAACAGGUGGUCCCAGGUCGUUUCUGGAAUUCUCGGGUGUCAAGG	1.14
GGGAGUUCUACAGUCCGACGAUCAAGUCCUGUGCUACACAUCGUAUGUACCGAAUCGGGCCCCGGGCCCCGGGCCCCGGGAAAGUAUUAUGUUACGCCGUUCGGAUCUGCACUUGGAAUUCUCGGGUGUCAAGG	-1.81
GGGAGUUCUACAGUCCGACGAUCCCUGUGCUACACAUCGUAUGUACCGAAUCAAACCCCCCCAAACCCCCAAAUUUUUUUAAAAAAGUAUUAUGUUACGCCGUUCGGAUCUGCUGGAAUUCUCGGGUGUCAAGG	0.101
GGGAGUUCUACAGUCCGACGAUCGUCCUGUGCUACACAUCGUAUGUACCGAAUCGGGGAAAAGGGAAAAGGGGAAAAGGGGAAAGUAUUAUGUUACGCCGUUCGGAUCUGCACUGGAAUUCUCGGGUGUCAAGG	0.384
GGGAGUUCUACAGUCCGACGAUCUCAAGUCCUGUGCUACACAUCGUAUGUACCGAAUCGGAAAGGGAAAGGGGAAAGGAAAGUAUUAUGUUACGCCGUUCGGAUCUGCACUUCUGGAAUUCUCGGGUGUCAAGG	-0.802
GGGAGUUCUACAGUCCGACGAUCCCUGUGCUACACAUCGUAUGUACCGAAUCGGGGUGGGGUUUUUUUGGGGAAAAAAAGGGGAAAGUAUUAUGUUACGCCGUUCGGAUCUGCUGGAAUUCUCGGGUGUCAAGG	0.182
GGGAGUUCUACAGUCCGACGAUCGUCCUGUGCUACACAUCGUAUGUACCGAAUCGGUUUUUUGGGUUUUUUGGUUUUUUGGGAAAGUAUUAUGUUACGCCGUUCGGAUCUGCAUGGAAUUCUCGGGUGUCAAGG	-1.2

Study 2 — method: RNA Bind-n-Seq; molecule type: RNA; matrix: in vitro; tested at: not given; reference: input RNA pool; reading: higher = stronger binding
Target: RING finger protein unkempt homolog, zinc fingers 1-6, GST-SBP tag (UNK, Homo sapiens, UniProt Q9C0B0, residues 30-357)
Sequence of UniProt Q9C0B0 (30-357, looked up): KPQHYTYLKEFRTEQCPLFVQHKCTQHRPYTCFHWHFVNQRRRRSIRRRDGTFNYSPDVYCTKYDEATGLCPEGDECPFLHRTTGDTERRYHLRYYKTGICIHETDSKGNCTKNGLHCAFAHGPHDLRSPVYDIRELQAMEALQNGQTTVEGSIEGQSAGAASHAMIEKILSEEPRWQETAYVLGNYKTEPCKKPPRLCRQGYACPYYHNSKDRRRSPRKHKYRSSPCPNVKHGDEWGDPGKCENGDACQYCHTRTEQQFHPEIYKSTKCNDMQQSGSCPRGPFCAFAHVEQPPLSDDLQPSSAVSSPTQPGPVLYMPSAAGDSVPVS
Setting: RNA with constant flanks, human-mouse chimeric sites, ends assumed
Sequence	bound/input enrichment [ratio]
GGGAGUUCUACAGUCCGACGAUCCUGAAAAACACAGAUAUCAAAGUUGUUGACUUUGGAAGUGCAACGUAUGACGACGAACAUCACAGUACUUUGGUGUCUACCCGGCACUACAGGGCUCCCGAGGUCAUUUUGGCUUUAGGUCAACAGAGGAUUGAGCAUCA	0.155
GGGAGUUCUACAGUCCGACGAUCUUAAUCCCCUUUACUGCUCCCCCACUUCUCAUGGUAAUAACAAAGUCUUAUAUUCCCGUCCUAGCUUUCACUCAGAUGGCUUAUGGAGCCGGUUUCCUAGCUUUCUUGGGAGGGAUCAGACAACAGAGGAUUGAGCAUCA	0.413
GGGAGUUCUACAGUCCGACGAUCAAAGAGUGGAUAGAGUGUGCACACGGGAUCGGUGGGACCCGGGCGAAGAAAGAGUGCAAGAUAGAGUUCGAUGACUUCGUAGAGUGUUUGCUUCGGUACAAAACGAUGAGGCGAAUGCAUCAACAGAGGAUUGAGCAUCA	0.368
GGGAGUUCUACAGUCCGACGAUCCUGAGGAUACCACUGAAGAGACCUUAAAAGAAUCAUUUUGACGGCUCGUUCGUGCAAGAAUAGUCACUGAUCGGGAAACUGGUUCUUCCAAAGGGUUUUGGUUUUGUGACUUUAAUAGUGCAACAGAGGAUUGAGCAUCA	0.215
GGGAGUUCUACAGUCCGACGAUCGGCUGCUGGUGACUGUCGGGAGCCGUCUGGAGUUCCCGCCGGAGCGCGCGCAGGUUAAUUUUAGAAAAUGCCAAGUAGGAAGUUUGUUGAGGGUGAAGUGGUCAGAGGCCGAUGGCCUGGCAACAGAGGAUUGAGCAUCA	3.88
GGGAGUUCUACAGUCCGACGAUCAAAGAAUGGAUAGAGUGUGCACACGGGAUCGGUGGGACCCGGGCGAAAAAGGAGUGCAAGAUAGAGUUCGAUGACUUCGAAGAGUGCUUGCUUCGGUACAAAACGAUGAGACGUGCACAUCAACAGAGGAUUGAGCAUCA	0.363
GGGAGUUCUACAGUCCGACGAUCACUCUUGACUCUUUCCAUCCUCUUCCUUUUCCUCUUGAUAUUCAAGGCCAUGAAUCCCAAAAUAACAAUCUAUCUUACUAGCACCCAAACAGAGGUGGAAUAAAUCCACCCCAGUGUCUCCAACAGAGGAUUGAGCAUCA	0.998
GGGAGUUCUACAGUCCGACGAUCGCCACCAGAUCCCAGAAACAUGACCCUUGCUGCCUACAAAGAGAAGAUGAAGGAGCUCCCGCUGGUGUCUCUGUUCUGCUCCUGCUUCCUGGCCGAUCCCCUGAAUAAGUCGUCCUACAACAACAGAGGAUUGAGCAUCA	0.351

Study 3 — method: RNA Bind-n-Seq; molecule type: RNA; matrix: in vitro; tested at: 365 nM; reference: no-protein control; reading: higher = stronger binding
Target: RNA binding protein fox-1 homolog 2, RRM domain, GST-SBP tag (RBFOX2, Homo sapiens, UniProt O43251-10, residues 100-194)
Setting: natural RNA segment, single round, ends assumed
Residues (chain): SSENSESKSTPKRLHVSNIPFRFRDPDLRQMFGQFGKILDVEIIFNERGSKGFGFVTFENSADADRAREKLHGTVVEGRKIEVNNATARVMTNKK
Sequence	RBNS enrichment (R)
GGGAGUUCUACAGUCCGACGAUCACUUUUACUUAUUGUGGGAUAACCUGGCACUAGUAGGCAGGUAAAGUCACAAAUUUGGUGUCUUUUCACCUUUUGACUGUUGACUUAAUAGCUCCUCUCACUCUGCCUGGUGGAAUUCUCGGGUGCCAA	0.267
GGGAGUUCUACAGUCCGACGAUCUGGGACCACAUCCUCCACUGUGGCUGACAACGCCCUUCCAAGGGAAUAUGGAAUGAGAACAUUCAUUAUUGAGGUUGUCCAAUGGCCAGGGUAUGCUUUCUAGAAAAUAUUGGAAUUCUCGGGUGCCAA	0.688
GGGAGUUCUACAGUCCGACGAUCUCCCUAACCCCUUGUCCGCAAGGGGUGAUGGCCGGCUGGUUGUGGGCACUGGCGGUCAAGUGUGGAGGAGAGGGGUGGAGGCUGCCCCAUUGAGAUCUUCCUGCUGAGUCUGGAAUUCUCGGGUGCCAA	0.603
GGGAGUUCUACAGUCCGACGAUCCUUUAACAGCUUACACUGAUUGGUGUUUUAUCUCCUGUGAUCCUUUGAUGGCUUUUUUUGCCUACCAUUUCACAGAGGUUUAGACAGCAGUAGUAGCUCCCUAGGAGAGUUGGAAUUCUCGGGUGCCAA	0.311
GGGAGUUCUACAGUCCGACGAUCGAUUUACACAAAUGUGACAACUUGGGCUCAAUUCACUCUGCUUUCCAACAGUGUAAAUGCAUAGCAGUGUUUAUCUGCAUGAGAACUAUGCACUAAUCUAUCUGAAGAAAUGGAAUUCUCGGGUGCCAA	0.757
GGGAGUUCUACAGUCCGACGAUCUCCAGGCCAGCACUUGGUCAUUUGAGAACUGUCUUCUGUGUUCUCUGUGACUUAGGCUAGCCCUAGGGUACUGAGGUGGCAGCUGCAUGGCUGUGGCCUGAAGUUGCACUUGGAAUUCUCGGGUGCCAA	0.225
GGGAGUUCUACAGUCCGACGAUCGCCCUAUAGUUCUGUGACUUCAUUUGCUAUACGCUUUAAAUGUGUUGAGCAGCCUAUGAACCUAAAGACAUACUGCAGUUUGUUCAUAAAUGUAUUCAGUCUUUUAUUCUUGGAAUUCUCGGGUGCCAA	0.442
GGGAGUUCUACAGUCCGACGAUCUCCGUCUACUCACAGAACAGUACUUUCUGGAAUAUUAUGGGGGAUUGUACCAAAACAAGAACCACUUAAACAAUGCCUAGGGAAUGAUAAGGAGGAGGAAAAUCCCAGGUUGGAAUUCUCGGGUGCCAA	0.551

Study 4 — method: protein-binding microarray; molecule type: double-stranded DNA, one strand shown; matrix: in vitro; tested at: 940 nM top; setting: 60-bp whole probe; together with: salmon DNA 0.4 mg/ml; reference: random background probes; reading: higher = stronger binding; shared flanks, not repeated: GCCTAGCAC … GTCTTGATTCGCTTGACGCTGCTG
Target: Interferon regulatory factor 5, full length, phosphomimetic (IRF5, Homo sapiens, UniProt Q13568-2, residues 1-514, S451D/S453D/S456D/S462D)
Sequence	fitted relative affinity [z-score]
GACAGTATCGACACTGGGGACGTGCTA	4.74
TCACTTTTCATGCTCTTACTGTGCTAG	1.65
TTAGGTCTCAGTTTCGGTTAGTGCTAG	8.5
TCACTAATGTTTTTTAAACTGTGCTAG	0.294
GACGGTATCCCACTGCTGACGTGCTAG	-0.065
TTGCCAATGCTTCTGGTCTTGTGCTAG	-0.345
TTCACTCTCTGCTTGTGTCTGTGCTAG	1.81
TTAGATTCCAGTTTCGATTCGTGCTAG	7.78
GACGGTTTCTGTCTCGGGACGTGCTAG	5.84
TCAATCTTATGATATATAACTGTGCTA	0.486
TTAGATATCGGTCTCGGTTAGTGCTAG	3.06
GACGAAATGAGTCTCGAGACGTGCTAG	1.1
GACGGTTTCGGGTTTCGGTACGTGCTA	9.79
TCATATCTGGGTTCCCCACTGTGCTAG	-0.104
GACGGTTACGGGACTGGGGACGTGCTA	-0.0569
GGCAGGAATAAAGGAGCAGCGTGCTAG	-0.923
TCACATTGCCTATTTTTCACTGTGCTA	1.08
GACGGTCTCTTTCTCCTGACGTGCTAG	1.31
GTCGGTCTCCTTCTCCTGACGTGCTAG	1.5

For quick reference, copied from above (study 4):
Sequence	fitted relative affinity [z-score]
GACGGTTACGGGACTGGGGACGTGCTA	-0.0569
TCACTAATGTTTTTTAAACTGTGCTAG	0.294
TCACATTGCCTATTTTTCACTGTGCTA	1.08
TTAGGTCTCAGTTTCGGTTAGTGCTAG	8.5
